Results of several laboratories.
A part holds a random share of what one study measured.
Chain of UniProt O94804 (whole entry, looked up): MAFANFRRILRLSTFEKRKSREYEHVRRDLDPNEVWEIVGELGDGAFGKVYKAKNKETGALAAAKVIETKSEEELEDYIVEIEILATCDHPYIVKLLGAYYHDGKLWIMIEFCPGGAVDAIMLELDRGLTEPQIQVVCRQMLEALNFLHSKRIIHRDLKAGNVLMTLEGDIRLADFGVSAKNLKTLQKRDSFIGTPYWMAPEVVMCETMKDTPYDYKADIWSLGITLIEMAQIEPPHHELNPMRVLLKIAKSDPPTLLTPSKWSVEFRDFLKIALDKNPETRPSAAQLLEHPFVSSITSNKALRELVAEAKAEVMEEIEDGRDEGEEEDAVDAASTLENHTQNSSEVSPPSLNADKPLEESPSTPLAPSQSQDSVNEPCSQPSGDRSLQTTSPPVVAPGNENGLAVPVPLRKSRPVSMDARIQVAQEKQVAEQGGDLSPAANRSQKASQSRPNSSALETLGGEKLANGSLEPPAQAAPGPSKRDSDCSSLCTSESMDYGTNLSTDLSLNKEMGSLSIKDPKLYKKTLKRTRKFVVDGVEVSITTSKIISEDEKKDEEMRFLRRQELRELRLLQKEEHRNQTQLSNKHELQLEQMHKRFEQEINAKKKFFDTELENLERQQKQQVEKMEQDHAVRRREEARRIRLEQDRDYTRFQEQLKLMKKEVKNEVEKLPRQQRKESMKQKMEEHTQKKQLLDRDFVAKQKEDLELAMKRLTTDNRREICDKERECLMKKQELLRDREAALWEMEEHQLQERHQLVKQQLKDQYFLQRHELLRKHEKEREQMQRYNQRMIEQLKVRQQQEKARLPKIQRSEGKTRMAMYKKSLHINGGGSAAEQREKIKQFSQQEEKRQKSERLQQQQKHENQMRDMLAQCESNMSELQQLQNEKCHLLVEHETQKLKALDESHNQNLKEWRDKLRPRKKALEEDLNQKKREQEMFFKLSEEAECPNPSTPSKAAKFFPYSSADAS
Chain of UniProt Q99759 (whole entry, looked up): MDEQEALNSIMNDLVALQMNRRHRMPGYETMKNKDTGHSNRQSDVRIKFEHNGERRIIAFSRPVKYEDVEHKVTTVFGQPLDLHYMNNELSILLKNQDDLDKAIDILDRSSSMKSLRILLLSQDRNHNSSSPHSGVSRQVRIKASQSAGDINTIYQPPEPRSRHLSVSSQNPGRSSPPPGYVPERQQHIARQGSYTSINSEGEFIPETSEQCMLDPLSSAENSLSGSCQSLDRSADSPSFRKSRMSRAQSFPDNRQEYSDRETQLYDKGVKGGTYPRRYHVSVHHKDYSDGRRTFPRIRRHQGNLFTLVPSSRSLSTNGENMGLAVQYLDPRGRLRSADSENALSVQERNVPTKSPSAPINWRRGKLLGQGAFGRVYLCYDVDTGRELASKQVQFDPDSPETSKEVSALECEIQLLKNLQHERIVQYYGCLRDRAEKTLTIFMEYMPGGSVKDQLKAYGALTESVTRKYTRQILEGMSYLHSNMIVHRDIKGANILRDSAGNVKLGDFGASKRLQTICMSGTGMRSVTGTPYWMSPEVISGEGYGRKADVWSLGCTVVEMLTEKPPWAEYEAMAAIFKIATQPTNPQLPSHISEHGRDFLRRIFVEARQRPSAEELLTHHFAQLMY
Chain of UniProt P53355 (whole entry, looked up): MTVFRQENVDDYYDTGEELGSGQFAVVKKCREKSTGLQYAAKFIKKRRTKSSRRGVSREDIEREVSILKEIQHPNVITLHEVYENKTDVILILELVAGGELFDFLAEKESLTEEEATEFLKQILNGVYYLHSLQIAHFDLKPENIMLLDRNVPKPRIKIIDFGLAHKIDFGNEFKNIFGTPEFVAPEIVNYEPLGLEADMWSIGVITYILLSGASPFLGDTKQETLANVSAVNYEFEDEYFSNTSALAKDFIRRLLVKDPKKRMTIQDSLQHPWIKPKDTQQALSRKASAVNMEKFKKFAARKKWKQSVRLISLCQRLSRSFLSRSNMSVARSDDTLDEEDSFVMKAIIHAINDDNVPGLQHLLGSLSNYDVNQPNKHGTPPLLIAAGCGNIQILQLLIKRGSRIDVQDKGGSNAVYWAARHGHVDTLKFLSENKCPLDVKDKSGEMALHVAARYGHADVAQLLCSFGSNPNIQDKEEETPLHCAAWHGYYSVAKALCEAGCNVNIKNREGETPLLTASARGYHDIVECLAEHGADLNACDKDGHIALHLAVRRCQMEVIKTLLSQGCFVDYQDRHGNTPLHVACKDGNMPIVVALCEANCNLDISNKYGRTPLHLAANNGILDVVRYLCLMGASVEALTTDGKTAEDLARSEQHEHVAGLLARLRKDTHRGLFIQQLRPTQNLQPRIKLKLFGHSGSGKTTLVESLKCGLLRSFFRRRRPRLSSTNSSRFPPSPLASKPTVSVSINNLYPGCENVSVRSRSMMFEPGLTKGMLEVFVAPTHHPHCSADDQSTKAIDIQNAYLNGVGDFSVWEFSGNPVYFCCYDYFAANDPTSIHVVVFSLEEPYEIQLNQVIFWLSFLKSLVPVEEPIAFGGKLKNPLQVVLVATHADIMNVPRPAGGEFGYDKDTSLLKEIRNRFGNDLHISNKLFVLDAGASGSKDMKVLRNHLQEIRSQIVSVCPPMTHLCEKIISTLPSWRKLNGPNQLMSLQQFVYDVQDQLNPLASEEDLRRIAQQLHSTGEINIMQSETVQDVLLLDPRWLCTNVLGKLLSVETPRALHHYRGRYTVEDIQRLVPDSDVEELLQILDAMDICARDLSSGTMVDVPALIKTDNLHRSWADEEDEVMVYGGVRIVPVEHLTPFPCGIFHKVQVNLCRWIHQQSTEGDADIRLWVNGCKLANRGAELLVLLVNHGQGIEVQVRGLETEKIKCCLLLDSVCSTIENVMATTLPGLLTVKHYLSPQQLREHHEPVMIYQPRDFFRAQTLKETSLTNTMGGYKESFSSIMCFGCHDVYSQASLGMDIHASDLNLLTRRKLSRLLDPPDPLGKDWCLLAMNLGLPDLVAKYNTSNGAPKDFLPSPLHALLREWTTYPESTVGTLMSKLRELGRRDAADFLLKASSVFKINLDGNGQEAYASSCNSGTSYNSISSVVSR
Chain of UniProt P45984 (whole entry, looked up): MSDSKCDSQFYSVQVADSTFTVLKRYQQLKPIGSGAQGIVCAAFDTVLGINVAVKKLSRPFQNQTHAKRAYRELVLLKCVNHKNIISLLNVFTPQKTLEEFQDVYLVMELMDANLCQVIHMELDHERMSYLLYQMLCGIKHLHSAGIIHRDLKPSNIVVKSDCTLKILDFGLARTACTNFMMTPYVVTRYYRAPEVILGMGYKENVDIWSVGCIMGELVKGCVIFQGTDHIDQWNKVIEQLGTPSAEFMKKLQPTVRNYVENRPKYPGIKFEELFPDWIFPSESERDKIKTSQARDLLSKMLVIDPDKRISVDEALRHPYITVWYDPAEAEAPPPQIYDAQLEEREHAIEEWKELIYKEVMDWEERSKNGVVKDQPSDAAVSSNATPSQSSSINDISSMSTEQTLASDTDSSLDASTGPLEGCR
Chain of UniProt O14920 (whole entry, looked up): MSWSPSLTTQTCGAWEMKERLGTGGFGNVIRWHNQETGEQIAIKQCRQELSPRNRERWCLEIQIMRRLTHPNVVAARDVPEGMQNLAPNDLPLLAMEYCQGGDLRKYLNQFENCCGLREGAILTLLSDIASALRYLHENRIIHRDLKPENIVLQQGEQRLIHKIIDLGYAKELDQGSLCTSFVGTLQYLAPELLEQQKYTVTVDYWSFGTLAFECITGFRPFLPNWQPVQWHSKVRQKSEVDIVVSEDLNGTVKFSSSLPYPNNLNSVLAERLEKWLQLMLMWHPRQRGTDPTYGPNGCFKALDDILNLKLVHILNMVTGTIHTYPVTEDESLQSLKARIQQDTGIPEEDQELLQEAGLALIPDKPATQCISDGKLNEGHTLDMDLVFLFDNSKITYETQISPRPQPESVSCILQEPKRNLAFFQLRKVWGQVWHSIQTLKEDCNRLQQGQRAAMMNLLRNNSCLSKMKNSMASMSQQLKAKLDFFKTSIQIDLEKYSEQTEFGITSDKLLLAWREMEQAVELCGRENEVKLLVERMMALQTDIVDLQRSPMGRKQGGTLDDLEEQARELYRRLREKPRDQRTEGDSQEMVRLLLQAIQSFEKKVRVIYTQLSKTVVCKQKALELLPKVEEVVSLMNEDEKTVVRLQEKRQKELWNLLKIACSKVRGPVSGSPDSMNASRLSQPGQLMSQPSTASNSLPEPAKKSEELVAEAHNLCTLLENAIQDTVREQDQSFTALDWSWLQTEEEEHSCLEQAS
Chain of UniProt Q15831 (whole entry, looked up): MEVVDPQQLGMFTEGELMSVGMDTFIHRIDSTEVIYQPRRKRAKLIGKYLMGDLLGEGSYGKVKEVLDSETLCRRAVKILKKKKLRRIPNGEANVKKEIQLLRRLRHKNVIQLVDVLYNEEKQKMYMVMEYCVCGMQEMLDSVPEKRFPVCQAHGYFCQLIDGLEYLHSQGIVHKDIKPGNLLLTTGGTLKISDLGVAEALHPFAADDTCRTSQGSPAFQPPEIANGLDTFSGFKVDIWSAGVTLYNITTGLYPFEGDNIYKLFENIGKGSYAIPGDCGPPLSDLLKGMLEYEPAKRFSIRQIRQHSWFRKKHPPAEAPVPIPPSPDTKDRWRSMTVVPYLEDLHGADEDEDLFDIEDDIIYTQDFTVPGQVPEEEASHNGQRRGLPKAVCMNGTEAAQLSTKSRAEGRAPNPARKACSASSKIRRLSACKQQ

Set 1
SMILES: COc1ccc2c(c[n+](C)c3c4cc5c(cc4ccc23)OCO5)c1OC
Read-out: enzyme activity
Mode: inhibitor
Concentration: 0.5 µM
Baseline: control
For STK11 (Homo sapiens, UniProt Q15831): remaining activity read 82.1%.
cGMP-dependent protein kinase 1, isoform beta (PRKG1, Homo sapiens, UniProt Q13976) — remaining activity: 97.6%.
For TGFBR2 (Homo sapiens, UniProt P37173): remaining activity read 71.6%.
It gave 94.8% for remaining activity (OXSR1 (Homo sapiens, UniProt O95747)).
CAMK2D (Homo sapiens, UniProt Q13557) — remaining activity: 90.4%.
It gave 87.5% for remaining activity (Cyclin-dependent kinase 4, with cyclin D1 (CDK4, Homo sapiens, UniProt P11802)).
For DAPK2 (Homo sapiens, UniProt Q9UIK4): remaining activity read 93.9%.
For DAPK1 (Homo sapiens, UniProt P53355): remaining activity read 86.7%.
For MAPK9 (Homo sapiens, UniProt P45984): remaining activity read 102%.
For MAP3K3 (Homo sapiens, UniProt Q99759): remaining activity read 101%.
For IKBKB (Homo sapiens, UniProt O14920): remaining activity read 103%.
It gave 100% for remaining activity (PRKACA (Homo sapiens, UniProt P17612)).
It gave 92.7% for remaining activity (STK10 (Homo sapiens, UniProt O94804)).
For CAMKK2 (Homo sapiens, UniProt Q96RR4): remaining activity read 98.2%.

Set 2
Cell line: HaCaT
Concentration: 100 µM
Time: 36 h
`CCC(=O)O[C@H]1CC[C@H]2[C@@H]3CC[C@H]4CC(=O)[C@H](C)C[C@]4(C)[C@H]3CC[C@]12C` has a viability of 56.9%.
The viability of `C[C@@H]1C[C@@H]([C@H](O)CC2CC(=O)NC(=O)C2)C(=O)[C@@H](C)C1` is reported as 13.7%.
`N#Cc1nn(-c2c(Cl)cc(C(F)(F)F)cc2Cl)c(N)c1[S+]([O-])C(F)(F)F` (centres unmarked) has a viability of 12.5%.
For `C=CC[C@]1(O)CC[C@H]2[C@@H]3CCC4=CC(=O)CCC4=C3C=C[C@@]21C`, the viability was 17.9%.
With `C#C[C@]1(O)C=C[C@H]2[C@@H]3CCC4=CC(=O)CC[C@@H]4[C@H]3CC[C@@]21CC` the viability was 85.8%.
`C[C@]12CC[C@H](O)CC1=CC[C@@H]1[C@@H]2CC[C@]2(C)C(=O)CC[C@@H]12` gave a viability of 81.6%.
For `O=C(O)[C@@H]1[C@H](C(=O)O)[C@H]2CC[C@@H]1O2`, the viability was 90.9%.
For `CC(C)C[C@H](CN)CC(=O)O`, the viability was 85.8%.
The viability of `CC(C)NCC(O)c1ccccc1Cl` (centres unmarked) is reported as 76.5%.

Set 3
Target: Delta-type opioid receptor (OPRD1, Homo sapiens, UniProt P41143)
Chain of UniProt P41143 (whole entry, looked up): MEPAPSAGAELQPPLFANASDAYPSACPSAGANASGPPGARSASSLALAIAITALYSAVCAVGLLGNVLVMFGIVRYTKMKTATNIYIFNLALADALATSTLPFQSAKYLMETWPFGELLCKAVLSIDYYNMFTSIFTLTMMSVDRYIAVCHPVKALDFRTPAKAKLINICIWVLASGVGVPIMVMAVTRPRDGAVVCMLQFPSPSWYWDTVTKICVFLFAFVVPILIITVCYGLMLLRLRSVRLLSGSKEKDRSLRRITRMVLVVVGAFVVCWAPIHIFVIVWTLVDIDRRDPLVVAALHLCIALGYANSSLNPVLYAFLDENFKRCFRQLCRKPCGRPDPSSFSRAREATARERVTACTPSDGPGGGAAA
Read-out: ligand displacement
Concentration: 10 µM
For `Cn1cc(Cl)c2c(Oc3c(F)cc(Nc4cc(Cl)nc(N)n4)cc3F)ccnc21`, the inhibition was -5.39%.
The inhibition of `Cc1ccc(-c2cnc([C@@]3(O)CC[C@H](C(=O)O)C(C)(C)C3)s2)cc1Nc1cccc(C(F)(F)F)n1` is reported as 25.1%.
With `CN1CCN(c2ccnc(NCCc3ccccc3)n2)CC1` the inhibition was 8.02%.
`CNC(=N)NCCC[C@H](NC(=O)[C@H](CC(C)C)NC(=O)NNC(=O)[C@H](Cc1ccccc1)NC(=O)[C@H](CO)NC(=O)[C@H](CC(N)=O)NC(=O)[C@@H](Cc1ccncc1)NC(=O)[C@H](N)Cc1ccc(O)cc1)C(=O)N[C@@H](Cc1ccccc1)C(N)=O` gave an inhibition of -32.3%.
The inhibition of `O=S(=O)(NC1CCC(c2cc(F)ccc2F)(S(=O)(=O)c2ccc(Cl)cc2)CC1)C(F)(F)F` (centres unmarked) is reported as 20%.
The inhibition of `CCOc1ccc(S(=O)(=O)Nc2ccc(Cl)cc2C#Cc2cnc(C(=O)O)cc2OC)c2ncccc12` is reported as -8.88%.
The inhibition of `N#CC1(c2ccccn2)CCN(Cc2cc(C(=O)N3CCCC3)c(=O)n3ccccc23)CC1` is reported as -0.84%.
The inhibition of `O=c1nc(-c2ccccn2)sc2ccccc12` is reported as 4.81%.
`CC1CCN(c2ccnc(NCc3cn(C)cn3)n2)CC1` has an inhibition of 4.65%.
`COc1cccc(NC(=O)c2nc3scc(CN(C)Cc4ccccc4)c3c(=O)[nH]2)c1` gave an inhibition of -5.54%.
With `CCC(F)(F)c1cc(N2CCC(S(C)(=O)=O)CC2)nc2sc(C(N)=O)c(N)c12` the inhibition was 3.97%.
For `CNC(=O)Nc1ccc2c(c1)CC[C@]21OC(=O)N(CC(=O)N(Cc2ccc(F)cc2)[C@@H](C)C(F)(F)F)C1=O`, the inhibition was -2.53%.
`Cc1c(N2CCNCC2)nc2ccc(Br)cc2c1C(=O)NC[C@H](CCC(=O)O)c1ccccc1Cl` has an inhibition of 36%.
For `Cc1ccccc1Oc1cc(-n2c(=O)cc(C(F)(F)F)[nH]c2=O)c2ccccc2c1Cl`, the inhibition was 14.5%.
For `Nc1nc(NCc2ccccc2)nc(-c2ccccc2CO)n1`, the inhibition was 12.5%.
With `CN([C@@H]1CCc2c(CC(=O)O)c3ccccc3n2C1)S(=O)(=O)c1ccc(F)cc1` the inhibition was -10.7%.
`c1ccc(N2CCN(Cc3nc4ccccc4[nH]3)CC2)nc1` has an inhibition of 15.3%.
`NS(=O)(=O)c1cc(NC(=O)Cc2ccccc2)ccc1Oc1cccc(Cl)c1` gave an inhibition of 20.5%.
The inhibition of `CC[C@H](CC(=O)O)n1c(=O)c2ncccc2n(Cc2cn(C)c3cc(C)cc(C)c23)c1=O` is reported as 9.83%.
`Cn1nc(C(=O)NCc2ccc(C(=O)O)cc2)cc1-c1ccc2[nH]ccc2c1` gave an inhibition of 0.8%.
For `COCCOc1nc(-c2ccc(Cl)nc2)nc2c1CN(C(=O)c1ncn3ccccc13)CC2`, the inhibition was 6.52%.
For `Nc1nc(NCc2ccccc2)nc(-c2cccc(CO)c2)n1`, the inhibition was 9.2%.
For `CO[C@H]1CC[C@H](CNc2ccc(S(=O)(=O)NC(=O)c3ccc(N4CCN(CC5=C(c6ccc(Cl)cc6)CC(C)(C)CC5)CC4)cc3Oc3cnc4[nH]ccc4c3)cc2[N+](=O)[O-])CC1`, the inhibition was 5.68%.

Set 4
Cell line: HEK-293T
Read-out: pseudovirus infection
Method: FDA-approved drug library counter-screen
Organism: VSV pseudotyped with VSV-G
Concentration: 10 µM
Time: 16 h
Baseline: vehicle-treated
`CC[C@@H]1/C=C(\C)C[C@H](C)C[C@H](OC)[C@H]2O[C@@](O)(C(=O)C(=O)N3CCCC[C@H]3C(=O)O[C@H](/C(C)=C/[C@@H]3CC[C@H](Cl)[C@H](OC)C3)[C@H](C)[C@@H](O)CC1=O)[C@H](C)C[C@@H]2OC` has a GFP-positive cells of 116%.
The GFP-positive cells of `CC(=O)OCC(COC(C)=O)OC(C)=O` is reported as 130%.
The GFP-positive cells of `CCCC1O[C@@H]2C[C@H]3[C@@H]4CCC5=CC(=O)C=C[C@]5(C)[C@H]4[C@@H](O)C[C@]3(C)[C@]2(C(=O)CO)O1` (some centres unmarked) is reported as 128%.
The GFP-positive cells of `CC(=O)OCC(=O)[C@@]12OC(C)(C)O[C@@H]1C[C@H]1[C@@H]3C[C@H](F)C4=CC(=O)C=C[C@]4(C)[C@@]3(F)[C@@H](O)C[C@@]12C` is reported as 108%.
The GFP-positive cells of `C[C@@H]1O[C@@H](OC[C@H]2O[C@@H](Oc3c(-c4ccc(O)c(O)c4)oc4cc(O)cc(O)c4c3=O)[C@H](O)[C@@H](O)[C@@H]2O)[C@H](O)[C@H](O)[C@H]1O` is reported as 83.1%.
`OCc1ccccc1` has a GFP-positive cells of 132%.
`COc1ccc2c(c1)c(CC(=O)O)c(C)n2C(=O)c1ccc(Cl)cc1` has a GFP-positive cells of 116%.
With `CNC[C@H](O)c1cccc(O)c1` the GFP-positive cells was 124%.
For `Cc1noc(NS(=O)(=O)c2ccc(N)cc2)c1C`, the GFP-positive cells was 90.6%.
The GFP-positive cells of `C#CCN(C)Cc1ccccc1` is reported as 125%.
`O=C1c2c(O)ccc(O)c2C(=O)c2c(NCCNCCO)ccc(NCCNCCO)c21` gave a GFP-positive cells of 62.5%.
With `O=C(c1ccc(OCCN2CCCCC2)cc1)c1c(-c2ccc(O)cc2)sc2cc(O)ccc12` the GFP-positive cells was 97.5%.
The GFP-positive cells of `COC(c1ccccc1)(c1ccccc1)[C@H](Oc1nc(C)cc(C)n1)C(=O)O` is reported as 104%.
The GFP-positive cells of `O=c1cc[nH]c(=O)[nH]1` is reported as 110%.
For `COc1cc(NC(C)CCCN)c2ncccc2c1` (centres unmarked), the GFP-positive cells was 91.7%.
With `COC(=O)/C=C/C(=O)OC` the GFP-positive cells was 89.6%.
The GFP-positive cells of `CC1(C)O[C@@H]2C[C@H]3[C@@H]4CCC5=CC(=O)CC[C@]5(C)[C@@]4(F)[C@@H](O)C[C@]3(C)[C@]2(C(=O)CCl)O1` is reported as 113%.
With `Nc1nc(O)c2ncn(COC(CO)CO)c2n1` the GFP-positive cells was 106%.
`O=C(O[C@H]1CN2CCC1CC2)N1CCc2ccccc2[C@@H]1c1ccccc1` has a GFP-positive cells of 125%.
`C[C@]12CC[C@@H]3c4ccc(OS(=O)(=O)O)cc4CC[C@H]3[C@@H]1CCC2=O` gave a GFP-positive cells of 87%.
With `CC1(C)S[C@@H]2[C@H](NC(=O)[C@H](NC(=O)N3CCNC3=O)c3ccccc3)C(=O)N2[C@H]1C(=O)O` the GFP-positive cells was 143%.
For `CC(=O)O[C@H]1C(=O)[C@@]2(C)[C@H]([C@H](OC(=O)c3ccccc3)[C@]3(O)C[C@H](OC(=O)[C@H](O)[C@@H](NC(=O)c4ccccc4)c4ccccc4)C(C)=C1C3(C)C)[C@]1(OC(C)=O)CO[C@@H]1C[C@@H]2O`, the GFP-positive cells was 102%.
For `CCOC(=O)C1=C(C)NC(C)=C(C(=O)OC)C1c1cccc(Cl)c1Cl` (centres unmarked), the GFP-positive cells was 14.9%.
`CCCNC(C)C(=O)Nc1c(C)csc1C(=O)OC` (centres unmarked) gave a GFP-positive cells of 130%.
`CNS(=O)(=O)Cc1ccc2[nH]cc(CCN(C)C)c2c1` gave a GFP-positive cells of 84.1%.

Excerpt of the above (set 1):
For TGFBR2 (Homo sapiens, UniProt P37173): remaining activity read 71.6%.
It gave 94.8% for remaining activity (OXSR1 (Homo sapiens, UniProt O95747)).
CAMK2D (Homo sapiens, UniProt Q13557) — remaining activity: 90.4%.
It gave 87.5% for remaining activity (Cyclin-dependent kinase 4, with cyclin D1 (CDK4, Homo sapiens, UniProt P11802)).
For DAPK2 (Homo sapiens, UniProt Q9UIK4): remaining activity read 93.9%.
For DAPK1 (Homo sapiens, UniProt P53355): remaining activity read 86.7%.
For MAPK9 (Homo sapiens, UniProt P45984): remaining activity read 102%.
For MAP3K3 (Homo sapiens, UniProt Q99759): remaining activity read 101%.
For IKBKB (Homo sapiens, UniProt O14920): remaining activity read 103%.
